# Assay results gathered from unrelated publications.
# Each line is one published result; not all experiments were run side by side.
# Target: Glucagon-like peptide 1 receptor (GLP1R, Homo sapiens, UniProt P43220)
# UniProt P43220, sequence (whole entry, looked up): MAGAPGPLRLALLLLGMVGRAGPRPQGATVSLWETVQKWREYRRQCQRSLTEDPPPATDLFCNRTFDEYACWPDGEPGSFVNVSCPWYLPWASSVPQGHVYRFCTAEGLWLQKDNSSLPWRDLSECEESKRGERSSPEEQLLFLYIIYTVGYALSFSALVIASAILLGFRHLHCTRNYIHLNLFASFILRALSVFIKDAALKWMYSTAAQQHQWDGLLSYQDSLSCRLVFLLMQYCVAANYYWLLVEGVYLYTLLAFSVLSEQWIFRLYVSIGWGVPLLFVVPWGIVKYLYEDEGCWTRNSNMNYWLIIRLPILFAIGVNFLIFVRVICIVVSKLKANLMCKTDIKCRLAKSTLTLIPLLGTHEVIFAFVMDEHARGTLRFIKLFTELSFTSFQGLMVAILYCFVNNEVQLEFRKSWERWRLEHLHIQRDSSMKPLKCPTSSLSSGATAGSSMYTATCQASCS
# Mode: agonist
SMILES,test,system,EC50 [nM]
CC[C@H](C)[C@H](NC(=O)[C@H](Cc1ccccc1)NC(=O)[C@H](CCC(=O)O)NC(=O)[C@H](CCCCN)NC(=O)[C@H](C)NC(=O)[C@H](C)NC(=O)[C@H](CCC(N)=O)NC(=O)CNC(=O)[C@H](CCC(=O)O)NC(=O)[C@H](CC(C)C)NC(=O)[C@H](Cc1ccc(O)cc1)NC(=O)[C@H](CO)NC(=O)[C@H](CO)NC(=O)[C@@H](NC(=O)[C@H](CC(=O)O)NC(=O)[C@H](CO)NC(=O)[C@@H](NC(=O)[C@H](Cc1ccccc1)NC(=O)[C@@H](NC(=O)CNC(=O)[C@H](CCC(=O)O)NC(=O)[C@H](C)NC(=O)[C@H](Cc1c[nH]cn1)NC[C@H](N)Cc1ccccc1)[C@@H](C)O)[C@@H](C)O)C(C)C)C(=O)N[C@@H](C)C(=O)N[C@@H](Cc1c[nH]c2ccccc12)C(=O)N[C@@H](CC(C)C)C(=O)N[C@H](C(=O)N[C@@H](CCCCN)C(=O)NCC(=O)N[C@@H](CCCNC(=N)N)C(N)=O)C(C)C,"reporter gene, luciferase",,0.01
CC[C@H](C)[C@H](NC(=O)[C@H](Cc1ccccc1)NC(=O)[C@H](CCC(=O)O)NC(=O)[C@H](CCCNC(=N)N)NC(=O)[C@@H](NC(=O)[C@H](C)NC(=O)[C@H](CCC(=O)O)NC(=O)[C@H](CCC(=O)O)NC(=O)[C@H](CCC(=O)O)NC(=O)[C@H](CC(C)C)NC(=O)[C@H](Cc1ccc(O)cc1)NC(=O)[C@H](CCCCN)NC(=O)[C@H](CO)NC(=O)[C@H](CC(C)C)NC(=O)[C@H](CC(=O)O)NC(=O)[C@H](CO)NC(=O)[C@@H](NC(=O)[C@H](Cc1ccccc1)NC(=O)[C@@H](NC(=O)CNC(=O)[C@H](CCC(N)=O)NC(=O)[C@@H](CO)NC(=O)[C@@H](N)Cc1c[nH]cn1)[C@@H](C)O)[C@@H](C)O)C(C)C)C(=O)N[C@@H](C)C(=O)N[C@@H](Cc1c[nH]c2ccccc12)C(=O)N[C@@H](CC(C)C)C(=O)N[C@@H](CCCCN)C(=O)N[C@@H](CC(N)=O)C(=O)NCC(=O)NCC(=O)N1CCC[C@H]1C(=O)N[C@@H](CO)C(=O)N[C@@H](Cc1ccc(O)cc1)C(=O)N[C@@H](CO)C(=O)N[C@@H](CCSC)C(=O)N[C@@H](CCC(=O)O)C(=O)N[C@@H](Cc1c[nH]cn1)C(=O)N[C@@H](Cc1ccccc1)C(=O)N[C@@H](CCCNC(=N)N)C(=O)N[C@@H](Cc1c[nH]c2ccccc12)C(=O)NCC(=O)N[C@@H](CCCCN)C(=O)N1CCC[C@H]1C(=O)N[C@H](C(N)=O)C(C)C,"cAMP, FRET",,0.275
CC[C@H](C)[C@H](NC(=O)[C@H](Cc1ccccc1)NC(=O)[C@H](CCC(=O)O)NC(=O)[C@H](CCCCN)NC(=O)[C@H](C)NC(=O)[C@H](C)NC(=O)[C@H](CCC(N)=O)NC(=O)CNC(=O)[C@H](CCC(=O)O)NC(=O)[C@H](CC(C)C)NC(=O)[C@H](Cc1ccc(O)cc1)NC(=O)[C@H](CO)NC(=O)[C@H](CO)NC(=O)[C@@H](NC(=O)[C@H](CC(=O)O)NC(=O)[C@H](CO)NC(=O)[C@@H](NC(=O)[C@H](Cc1ccccc1)NC(=O)[C@@H](NC(=O)CNC(=O)[C@@H](N)CCC(=O)O)[C@@H](C)O)[C@@H](C)O)C(C)C)C(=O)N[C@@H](C)C(=O)N[C@@H](Cc1c[nH]c2ccccc12)C(=O)N[C@@H](CC(C)C)C(=O)N[C@H](C(=O)N[C@@H](CCCCN)C(=O)NCC(=O)N[C@@H](CCCNC(=N)N)C(N)=O)C(C)C,,human cells,363
CC[C@H](C)[C@H](NC(=O)[C@H](Cc1ccccc1)NC(=O)[C@H](CCC(=O)O)NC(=O)[C@H](CCCCN)NC(=O)[C@H](C)NC(=O)[C@H](C)NC(=O)[C@H](CCC(N)=O)NC(=O)CNC(=O)[C@H](CCC(=O)O)NC(=O)[C@H](CC(C)C)NC(=O)[C@H](Cc1ccc(O)cc1)NC(=O)[C@H]1CCC[C@@H]1NC(=O)[C@H](CO)NC(=O)C(C)(C)NC(=O)[C@H](CC(=O)O)NC(=O)[C@H](CO)NC(=O)[C@@H](NC(=O)[C@H](Cc1ccccc1)NC(=O)[C@@H](NC(=O)CNC(=O)[C@H](CCC(=O)O)NC(=O)C(C)(C)NC(=O)[C@@H](N)Cc1c[nH]cn1)[C@@H](C)O)[C@@H](C)O)C(=O)N[C@@H](C)C(=O)N[C@@H](Cc1c[nH]c2ccccc12)C(=O)N[C@@H](CC(C)C)C(=O)N[C@H](C(=O)N[C@@H](CCCCN)C(=O)NCC(=O)N[C@@H](CCCNC(=N)N)C(N)=O)C(C)C,"β-arrestin-1 recruitment, BRET",HEK293FT with GRK5,2.69
CC[C@H](C)[C@H](NC(=O)[C@H](Cc1ccccc1)NC(=O)[C@H](CCC(=O)O)NC(=O)[C@H](CCCCN)NC(=O)[C@H](C)NC(=O)[C@H](C)NC(=O)[C@H](CCC(N)=O)NC(=O)CNC(=O)[C@H](CCC(=O)O)NC(=O)[C@H](CC(C)C)NC(=O)[C@H](Cc1ccc(O)cc1)NC(=O)[C@H](CO)NC(=O)[C@H](CO)NC(=O)[C@@H](NC(=O)[C@H](CC(=O)O)NC(=O)[C@H](CO)NC(=O)[C@@H](NC(=O)[C@H](Cc1ccccc1)NC(=O)[C@@H](NC(=O)CNC(=O)[C@H](CCC(=O)O)NC(=O)C(C)(C)NC(=O)[C@@H](N)Cc1c[nH]cn1)[C@@H](C)O)[C@@H](C)O)C(C)C)C(=O)N[C@@H](C)C(=O)N[C@@H](Cc1c[nH]c2ccccc12)C(=O)N[C@@H](CC(C)C)C(=O)N[C@H](C(=O)N[C@@H](CCCCN)CN(CC(=O)N[C@@H](CCCNC(=N)N)C(=O)N[C@@H](CCCCN)CN(CC(N)=O)S(C)(=O)=O)S(C)(=O)=O)C(C)C,"reporter gene, luciferase",,0.04
CC[C@H](C)[C@H](NC(=O)[C@H](Cc1ccccc1)NC(=O)[C@H](CCC(=O)O)NC(=O)[C@H](CCCCN)NC(=O)[C@H](C)NC(=O)[C@H](C)NC(=O)[C@H](CCC(N)=O)NC(=O)CNC(=O)[C@H](CCC(=O)O)NC(=O)[C@H](CC(C)C)NC(=O)[C@H](Cc1ccc(O)cc1)NC(=O)C[C@@H](NC(=O)[C@H](CO)NC(=O)C(C)(C)NC(=O)[C@H](CC(=O)O)NC(=O)[C@H](CO)NC(=O)[C@@H](NC(=O)[C@H](Cc1ccccc1)NC(=O)[C@@H](NC(=O)CNC(=O)[C@H](CCC(=O)O)NC(=O)[C@H](C)NC(=O)[C@@H](N)Cc1c[nH]cn1)[C@@H](C)O)[C@@H](C)O)C(C)C)C(=O)N[C@@H](C)C(=O)N[C@@H](Cc1c[nH]c2ccccc12)C(=O)N[C@@H](CC(C)C)C(=O)N[C@H](C(=O)N[C@@H](CCCCN)C(=O)NCC(=O)N[C@@H](CCCNC(=N)N)C(N)=O)C(C)C,"cAMP, luciferase",,0.219
CC[C@H](C)[C@H](NC(=O)[C@H](Cc1ccccc1)NC(=O)[C@H](CCC(=O)O)NC(=O)[C@H](CCCCN)NC(=O)[C@H](C)NC(=O)[C@H](C)NC(=O)[C@H](CCC(N)=O)NC(=O)CNC(=O)[C@H](CCC(=O)O)NC(=O)[C@H](CC(C)C)NC(=O)[C@H](Cc1ccc(O)cc1)NC(=O)[C@H](CO)NC(=O)[C@H](CO)NC(=O)[C@@H](NC(=O)[C@H](CC(=O)O)NC(=O)[C@H](CO)NC(=O)[C@@H](NC(=O)[C@H](Cc1ccccc1)NC(=O)[C@@H](NC(=O)CNC(=O)[C@H](CCC(=O)O)NC(=O)[C@H](C)NC(=O)[C@H](Cc1c[nH]cn1)NCCC1(C)N=N1)[C@@H](C)O)[C@@H](C)O)C(C)C)C(=O)N[C@@H](C)C(=O)N[C@@H](Cc1c[nH]c2ccccc12)C(=O)N[C@@H](CC(C)C)C(=O)N[C@H](C(=O)N[C@@H](CCCCN)C(=O)NCC(=O)N[C@@H](CCCNC(=N)N)C(N)=O)C(C)C,"reporter gene, luciferase",,0.00794
CC(C)C[C@H](NC(=O)[C@H](Cc1ccc(O)cc1)NC(=O)[C@H](CO)NC(=O)[C@H](CO)NC(=O)[C@@H](NC(=O)[C@H](CC(=O)O)NC(=O)[C@H](CO)NC(=O)[C@@H](NC(=O)[C@H](Cc1ccccc1)NC(=O)[C@@H](NC(=O)CNC(=O)[C@H](CCC(=O)O)NC(=O)[C@H](C)NC(=O)[C@@H](N)Cc1c[nH]cn1)[C@@H](C)O)[C@@H](C)O)C(C)C)C(=O)N[C@@H](CCC(=O)O)C(=O)NCC(=O)N[C@@H](CCC(N)=O)C(=O)N[C@@H](C)C(=O)N[C@@H](C)CN(CC(=O)N[C@@H](CCC(=O)O)C(=O)N[C@@H](Cc1ccccc1)CN(CC(=O)N[C@@H](C)C(=O)N[C@@H](Cc1c[nH]c2ccccc12)CN(CC(=O)N[C@H](C(=O)N[C@@H](CCCCN)CN(CC(=O)N[C@@H](CCCNC(=N)N)C(=O)N[C@@H](CCCCN)CN(CC(N)=O)S(C)(=O)=O)S(C)(=O)=O)C(C)C)S(=O)(=O)CC(C)C)S(=O)(=O)CC(C)C)S(=O)(=O)CCN,"reporter gene, luciferase",,> 1000

# A few entries again:
SMILES,test,system,EC50 [nM]
CC[C@H](C)[C@H](NC(=O)[C@H](Cc1ccccc1)NC(=O)[C@H](CCC(=O)O)NC(=O)[C@H](CCCCN)NC(=O)[C@H](C)NC(=O)[C@H](C)NC(=O)[C@H](CCC(N)=O)NC(=O)CNC(=O)[C@H](CCC(=O)O)NC(=O)[C@H](CC(C)C)NC(=O)[C@H](Cc1ccc(O)cc1)NC(=O)C[C@@H](NC(=O)[C@H](CO)NC(=O)C(C)(C)NC(=O)[C@H](CC(=O)O)NC(=O)[C@H](CO)NC(=O)[C@@H](NC(=O)[C@H](Cc1ccccc1)NC(=O)[C@@H](NC(=O)CNC(=O)[C@H](CCC(=O)O)NC(=O)[C@H](C)NC(=O)[C@@H](N)Cc1c[nH]cn1)[C@@H](C)O)[C@@H](C)O)C(C)C)C(=O)N[C@@H](C)C(=O)N[C@@H](Cc1c[nH]c2ccccc12)C(=O)N[C@@H](CC(C)C)C(=O)N[C@H](C(=O)N[C@@H](CCCCN)C(=O)NCC(=O)N[C@@H](CCCNC(=N)N)C(N)=O)C(C)C,"cAMP, luciferase",,0.219
